# Assay results from different studies.
# Every numbered part comes from another study and shows a few of its results, in no order. Substitutions count along the parent as printed.

# Series 1 — technique: competition protein-binding microarray; form: double-stranded DNA, one strand shown; matrix: in vitro; concentration: 2 µM; added: Cbf1 competitor, 0.05 µM; reading: higher = stronger binding; shared flanks, not repeated: … GTCTTGATTCGCTTGACGCTGCTG
# Target: Phosphate system positive regulatory protein PHO4, full length, GST-tagged (PHO4, Saccharomyces cerevisiae, UniProt P07270, residues 1-312)
# Setting: whole 60-bp probe, lowest competitor level
# Residues (chain): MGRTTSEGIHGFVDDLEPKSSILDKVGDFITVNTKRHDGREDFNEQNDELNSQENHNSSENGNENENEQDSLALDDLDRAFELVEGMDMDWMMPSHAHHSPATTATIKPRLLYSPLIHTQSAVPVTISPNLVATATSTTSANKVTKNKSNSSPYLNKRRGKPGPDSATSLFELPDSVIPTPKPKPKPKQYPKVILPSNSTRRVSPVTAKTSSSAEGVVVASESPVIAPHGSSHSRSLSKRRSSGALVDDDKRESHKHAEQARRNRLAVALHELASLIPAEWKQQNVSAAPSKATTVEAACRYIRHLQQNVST
Oligonucleotide,fluorescence intensity
TGGCGCTTGACTCCACTCGTGAGTCTTGTTTGGACT,4320 a.u.
TAATAGAGATATCACCACGTGTGGAGAATAGATTCA,18300 a.u.
GTCTTGTCTCATTGATAAGTGGGTGTCCCCACTTCA,4320 a.u.
CAGTTATGAGACTGTATCATGACAATACCTTATTTG,3540 a.u.
CTTTCCCGATCTTGTGTTGTGGGTGTAGCACATTTG,6340 a.u.
AGCTTGTTTATCTTGCACATGGCAAGGCCATCGCGG,8960 a.u.
CGCTGTTACTTCTCGCGCGTGATGGGGTCAGCGAAG,7060 a.u.
CTTTCCCGATCTTGGTGGGTGGGTGTAGCACATTTG,5030 a.u.
CGGGGTTAAGTTTGTCACGCTACTTGCTTGCAGCAG,4740 a.u.
TATTTTTTCACCATCAACGTGGTGATTCACTTATTC,14500 a.u.
CGGGGTTAAGTTTGCCACGTGGGTGGCTTGCAGCAG,17400 a.u.
GGGTTTCCTTCTGGTATGATAAATGTGAGCCAAATG,4860 a.u.
CTTCTCTTTCCCTGGCACGTGCAATTTTACCTCTGA,19700 a.u.
CGGGGTTAAGTTTGGAGCGTGGGTGGCTTGCAGCAG,8550 a.u.
GATCCGTCTACGACTCCCGTGGTGAGCCAACCGTCG,5940 a.u.
AAAGCGGTAATTTGTCACCACACTTCACATATCTAT,4970 a.u.
CGGACCCCGTCTTAGCACACGCAGACGCAGACGCAG,7010 a.u.
CGGGGTTAAGTTTGGTAAGTGGGTGGCTTGCAGCAG,4480 a.u.
CTAACGAAGGTTTGCGGCGTGGGTGACAAGCCAAGT,6900 a.u.
AGGGGCCGTCCACCAAACGTGACTCGACGAGTTGAC,9080 a.u.
TGCGCAACAACTTGGCATGTGGGTGTATGTCTAGAA,10300 a.u.
CTTTCCCGATCTTGTCCGGTGGGTGTAGCACATTTG,4570 a.u.
AAATTACTAAGTTTTCACGTGCTTTACCCCGTATGA,14500 a.u.
AAAGCGGTAATTTGGCACGTGTTTTCACATATCTAT,18500 a.u.

# Series 2 — technique: DHFR PCA, dose-response; matrix: yeast; setting: Hill fit, mean, not affinity; added: (+)-ABA, dose series; reading: lower = more sensitive
# Target: ABI1, truncated, D143A, DHFR fusion (Arabidopsis thaliana, UniProt P49597)
# Parent: PYL1, truncated, DHFR fusion (Arabidopsis thaliana, UniProt Q8VZS8); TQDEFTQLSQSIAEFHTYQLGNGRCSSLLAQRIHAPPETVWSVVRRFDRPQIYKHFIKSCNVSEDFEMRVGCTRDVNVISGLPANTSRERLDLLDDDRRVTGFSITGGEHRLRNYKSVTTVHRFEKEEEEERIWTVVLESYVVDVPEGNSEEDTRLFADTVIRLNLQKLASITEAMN
Substitution,ABA EC50
D3Q,7.4 µM
D144R,90.8 µM
T154A,16 µM
E128S,1.98 µM
S150P,515 µM
S171W,6.23 µM
V118H,8.55 µM
L82A,119 µM
E67N,2.72 µM
E4Q,2.5 µM
H55T,0.44 µM
E130W,11.9 µM
H34Q,4.01 µM
T101A,13.5 µM
E64T,2.85 µM
L28C,14.6 µM
I79F,4.7 µM

# Series 3 — target: CREBZF, bZIP domain (human); technique: DHFR protein complementation; matrix: yeast; relative to: wild-type JUN-FOS pair; reading: higher = stronger binding
# Setting: single substitutions, most at no-binding floor
# Parent: JUN, bZIP domain (human); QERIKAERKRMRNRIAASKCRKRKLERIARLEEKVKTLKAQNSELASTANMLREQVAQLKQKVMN; partner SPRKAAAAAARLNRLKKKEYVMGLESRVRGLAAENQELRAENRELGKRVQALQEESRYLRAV
Substitution,binding fitness [natural log]
V35T,-1.54
A49V,-1.62
A57P,-1.51
A46F,-1.33
K34T,-1.51
L52G,-1.5
E32G,-1.49
L31Q,-1.48
A57Q,-1.47
A29S,-1.38
A29R,-1.4
E32Y,-1.35
E44I,-1.15
A29V,-1.47
S43T,-1.46
I28S,-1.43
Q55G,-1.57
L45R,-1.49
T37H,-1.5

# Series 4 — technique: RNA Bind-n-Seq; form: RNA; matrix: in vitro; concentration: 200 nM; setting: whole 134-nt RNA, ends assumed; added: 150 mM LiCl; relative to: input library; reading: higher = stronger binding; library: 7-deaza-guanosine replaces G
# Target: Fragile X messenger ribonucleoprotein 1, C-terminal low-complexity region (Fmr1, Mus musculus, UniProt P35922)
# Shared flanks, not repeated: GGGAGUUCUACAGUCCGACGAUC … UGGAAUUCUCGGGUGUCAAGG
Oligonucleotide,log2 enrichment
UGGGAGGUGGAUUAUGUUUAUUUUUUUAGCUCAUUUCCAGGGGUGGGAAUUUUUUUUUAAUAUGUGUCAUGAAUAAAGUUGUUUUUGAAA,-0.857
AAGUCCUGUGCUACACAUCGUAUGUACCGAAUCGGGAGGGUUUUUUUGGGUUUGGGAAAGUAUUAUGUUACGCCGUUCGGAUCUGCACUU,-1.79
CUGUGCUACACAUCGUAUGUACCGAAUCGGGGAAAAAAAGGGGAAAAAAAGGAAAAAAAGGAAAGUAUUAUGUUACGCCGUUCGGAUCUG,0.139
CUGUGCUACACAUCGUAUGUACCGAAUCGGGGAAAAAGGGGUUUUUGGGGAAAAAAAGGGGAAAGUAUUAUGUUACGCCGUUCGGAUCUG,-0.0047
GCAGGAAGUAAAAAGAAAUGGAAAUGCUUCGGAUAGUGGCAGGGGUGGGGGUUGCUAAGGAAAGGGUGGGAUGGGAGUGGGUAAAGAGUU,1.05
UGGCCCUGGGGGCAUGCGGGGAGGAAGAGGUGGCCUCAUGGAUCGUGGUGGUCCCGGUGGAAUGUUCAGAGGUGGCCGUGGUGGAGACAG,-0.56
UCCUGUGCUACACAUCGUAUGUACCGAAUCGGGCCCCCCGGCCCCCCGGGGCCCCCCGGAAAGUAUUAUGUUACGCCGUUCGGAUCUGCA,0.203
CUCAAGUCCUGUGCUACACAUCGUAUGUACCGAAUCGGGUGGGUUUGGGUGGGAAAGUAUUAUGUUACGCCGUUCGGAUCUGCACUUCCA,-0.0081
UGGGAGGUGGAUUUUGUUUAUUUUUUUAGCUCAUUUCCAGGGGUGGGAAUUUUUUUUUAAUAUGUAUCAUGAAUAAAGUUGUUUUUGAAA,-0.0512
CCUGUGCUACACAUCGUAUGUACCGAAUCGGCCCCCCCGGCCCCCCCGGCCCCCCCGGGGAAAGUAUUAUGUUACGCCGUUCGGAUCUGC,1
UUAGGGUCAUGUGAAGGUGGUGCGCUACUUAGUCAAAGAAGUCAAUCAGUUUCCAUCAGAUUCUGAAUGUAUGAGAUACAUAGCAACCAU,-1.79

# Series 5 — technique: universal PBM; form: double-stranded DNA, one strand shown; matrix: in vitro; concentration: not given; reading: higher = stronger binding
# Target: Sal-like protein 4, full length isoform B (SALL4, Homo sapiens, UniProt Q9UJQ4-2, residues 1-616)
# Setting: 8-mer, flanks averaged, mean of replicates
Oligonucleotide,E-score
GATAGAAC,0.118
CGGTTTAG,-0.133
AATTCTTA,0.24
CAGCAAGA,0.0324
AGCAACAT,0.0751
CGAGAAGC,-0.0984
AGCGGCGG,-0.332
CACTTACC,0.0309
CGCTATGA,0.111
GAGAGCTA,-0.0311
ATGTAACC,0.0584
ACTTATCG,0.00964
CAACAGAA,0.131
CGGCGTAA,-0.0143
CTACTGAC,-0.0508
ACACAAGA,0.163
ATACGGGC,-0.147
CGATACTC,-0.0768
GGACGCAA,-0.174
CGCACCAC,-0.0719
ACGAGAGG,-0.0907
AAGTACTT,0.107
CGCAACAG,-0.0506
CGGCATGC,-0.259
AGATGCCG,-0.222

# Series 6 — target: CCNE2, cyclin fold, Cln2 fusion (human); technique: yeast growth competition, sequencing; matrix: yeast; setting: weak parent motif; relative to: not given; reading: higher = stronger binding
# Parent: CDKN1C docking peptide (human); TSACRSLFGPVDH
Substitution,normalised enrichment score
TSACRSLFAPVDH [G9A],1.08
TSACRSAFGPVDH [L7A],-0.364
TSACRALFGPVDH [S6A],1.13
TSACRSLLGPVDH [F8L],0.327
TSAARSLFGPVDH [C4A],0.122
TAACRSLFGPVDH [S2A],1.65
TSACRSLFGPVAH [D12A],0.731

# Excerpt of the above (series 5):
Oligonucleotide,E-score
GAGAGCTA,-0.0311
ATGTAACC,0.0584
ACTTATCG,0.00964
CAACAGAA,0.131
CGGCGTAA,-0.0143
CTACTGAC,-0.0508
